Experimental data from different studies.
Each numbered part is a random draw from the data of one study; scales do not carry over between parts.

Series 1
Target: Muscarinic acetylcholine receptor M5 (CHRM5, Homo sapiens, UniProt P08912)
UniProt P08912, sequence (whole entry, looked up): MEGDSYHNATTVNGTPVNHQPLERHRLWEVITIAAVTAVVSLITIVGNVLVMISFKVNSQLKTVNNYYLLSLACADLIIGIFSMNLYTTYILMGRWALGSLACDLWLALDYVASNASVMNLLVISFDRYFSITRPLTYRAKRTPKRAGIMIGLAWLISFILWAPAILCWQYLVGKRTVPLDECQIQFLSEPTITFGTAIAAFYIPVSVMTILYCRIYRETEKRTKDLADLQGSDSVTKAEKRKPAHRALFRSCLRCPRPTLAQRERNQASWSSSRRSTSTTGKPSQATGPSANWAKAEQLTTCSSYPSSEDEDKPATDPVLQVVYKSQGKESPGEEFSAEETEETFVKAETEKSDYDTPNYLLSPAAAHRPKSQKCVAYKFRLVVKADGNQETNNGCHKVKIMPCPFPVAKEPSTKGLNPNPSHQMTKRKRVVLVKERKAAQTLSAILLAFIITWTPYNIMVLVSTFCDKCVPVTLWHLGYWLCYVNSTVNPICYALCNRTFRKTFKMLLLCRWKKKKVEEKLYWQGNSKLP
Observed: binding
Technique: radioligand binding
Concentration: 10 µM
Compound | inhibition [%]
O=C(Nc1cnc(Oc2ccc(F)cc2)nc1)N1CCc2ncccc2[C@@H]1c1ccc(F)cc1 | 12
Cc1cc(C)c(-n2ccn3nc(-c4cccnc4)cc23)cc1NC(=O)c1cc(C#N)cc(S(F)(F)(F)(F)F)c1 | 16.1
CCOC(=O)c1cc2cc(-c3cc(C(=O)NCc4ccc(C(=O)O)cc4)nn3C)ccc2[nH]1 | 7.64
O=C(Nc1cccnn1)N1CC(CC=Cc2cncc(Oc3ccc(C(F)(F)F)cn3)n2)C1 | -0.59
O=C([C@H]1C[C@H](O)CN1c1ccc(Cl)cc1)N1CC2COCC(C1)N2Cc1ccc(Cl)cc1 | -1.65
CN1CCN(C(=O)C(C)(C)c2ccc(C(=O)Nc3cn4cc(-c5ccncc5)ccc4n3)cc2)CC1 | 9.31
O=C(Nc1ccc(-n2nc(-c3cccnc3)cc2C(F)(F)F)cn1)c1ccc(-c2ccccc2)c(F)c1 | 0.37
Cc1nccc(COC(=O)N2C[C@@H]3[C@@H](CNC(=O)c4ccc5[nH]nnc5c4)[C@@H]3C2)n1 | -9.7
Cc1c[nH]c2nccc(Oc3c(F)cc(Nc4cc(Cl)nc(N)n4)cc3F)c12 | -3.6
CCCOc1ccc([C@H]2[C@H](C(=O)O)[C@@H](c3ccc4c(c3)OCO4)CN2CC(=O)Nc2c(CC)cccc2CC)cc1 | 27.3
C[C@@]1(Cc2ccc(C#N)cc2)C(=O)N(c2cc(Cl)cc(Cl)c2)c2ncc(C(=O)NC3(c4nc(C5CCC5)no4)CC3)n21 | -8.46
CC(=O)c1c(NS(C)(=O)=O)c2cc(-c3ccc(Cl)cc3)c(-c3ccc(Cl)cc3Cl)nc2n(C)c1=O | -4.93
Cc1c(NC(=O)c2cc(C(N)=O)nc3cc(F)ccc23)c(C(F)(F)F)nn1Cc1ccc(C(C)(C)C)cc1 | 7.12
O=C(NC[C@@H]1[C@H]2CN(C(=O)OCc3cc(C(F)(F)F)cc(C(F)(F)F)c3)C[C@@H]12)c1ccc2[nH]nnc2c1 | 15.3
Cc1cc(-n2nc(Cc3cc(F)cc(C(F)(F)F)c3)nc2C)ccc1C(N)=O | -2.07
O=C(O)c1cc(-c2ccc(C3CCNCC3)cc2)c2ccc(-c3ccc(C(F)(F)F)cc3)cc2c1 | 10.1
CS(=O)(=O)NCC[C@H](NC(=O)c1cncc2c1cnn2-c1ccc(F)cc1)c1ccnc(S(C)(=O)=O)c1 | 5.99
CC(=O)N1CCC(c2ccc(C(=O)NC(=N)N)cc2C(F)(F)F)CC1 | -8.36
CC(=O)Nc1nc(CN2CCC[C@H](Cc3cc(C)nc(C)c3)C2)cs1 | -6.15
CC(C)(O)c1cncc(-c2nc3ccc(F)cc3n2C2CC2)c1 | -2.81
Nc1c(C(=O)NCc2ccc(C(=O)NCCCC3CCCCC3)cc2)cnn1-c1ccccc1 | -30.4
CC1=C(C#N)[C@@H](c2ccc3[nH]nc(C)c3c2)C(C#N)=C(c2ccc(Cl)cc2)N1 | 9.95
CC(C)CC(=O)N1CCc2nc(-c3ccc(Br)cc3)nc(N(C)Cc3ccccc3)c2C1 | 7.59
CN1C(=O)[C@@H](N2CCc3cn(Cc4ccccc4)nc3C2=O)COc2ccccc21 | 6.63
CNC(=O)Nc1ccc2c(c1)[C@]1(CC2)OC(=O)N(CC(=O)N(Cc2ccc(F)cc2)[C@@H](C)C(F)(F)F)C1=O | -2.77

Series 2
Organism: Plasmodium berghei
Mode: inhibitor
Cells: Huh-7
Strain: GFP-expressing sporozoites, liver stage
Concentration: 10 µM
Time: 24 h
Baseline: untreated control
Structure (SMILES) | infection rate
CC=CC(=O)N(CC)c1ccccc1C | 124%
Oc1c(Cl)cc(Cl)c(Cl)c1Cc1c(O)c(Cl)cc(Cl)c1Cl | 0.28%
NS(=O)(=O)c1cc2c(cc1Cl)N=CNS2(=O)=O | 97.6%
CC1(C)S[C@@H]2[C@H](NC(=O)C(C(=O)O)c3ccccc3)C(=O)N2[C@H]1C(=O)O (stereo partly shown) | 97.9%
CC(C(=O)O)c1ccc2c(c1)[nH]c1ccc(Cl)cc12 (stereo not shown) | 98.8%
CNCCCN1c2ccccc2CCc2ccccc21 | 79%
CN(C)CCCOc1nn(Cc2ccccc2)c2ccccc12 | 26.3%
Cc1cc(O)cc(C)c1Cl | 109%

Series 3
Species: mouse
Medium: microsomes or S9
Concentration: 2 µM
Time: 0.5 h
SMILES | remaining compound
CC(CC(=O)c1ccc2ccccc2c1)n1nnc(-c2ccccc2)n1 (stereo not shown) | 0.963%
CC1CCN(c2ccc(-c3noc(C(=O)NCCc4nc5ccccc5[nH]4)n3)cc2)CC1 | 57.3%
CC(=O)N1N=C(c2c(-c3ccccc3)c3cc(Br)ccc3[nH]c2=O)CC1c1ccco1 (stereo not shown) | 5.9%
C(=C\c1ccccc1)/CNCCCN1CCOCC1 | 24.8%
CC(C)S(=O)(=O)c1ccc(CC(=O)NCC(O)Cn2ccccc2=O)cc1 (stereo not shown) | 0.217%
Cc1cc(-c2cc(=O)n(Cc3ccc(F)cc3Cl)nc2-c2ccco2)on1 | 93.7%
CCCn1nc(C)c(-c2cncn2CC(c2ccccc2Cl)N(C)C)c1C (stereo not shown) | 7.18%
CN1C(=O)C(CC(=O)N2CCN(c3ccccn3)CC2)=C2CCCCC21 (stereo not shown) | 2.2%
CC(Nc1oc(/C=C/c2cccs2)nc1C#N)c1ccccc1 (stereo not shown) | 0.57%
Cc1cc(O)c(C(c2ccco2)c2c(O)cc(C)n(C)c2=O)c(=O)n1C | 30.6%
COc1ccc(-n2cc(CO)c3cnc4c(OC)cccc4c32)c(C)c1 | 27%
CC(c1ccc(-c2ccc(S(N)(=O)=O)cc2F)cc1)N1CCOCC1 (stereo not shown) | 37.9%
CCCN(CCC)C(=O)c1cccc(C(=O)NN(Cc2cc(F)cc(F)c2)C(=O)[C@H](NCC(=O)NCc2ccccc2)C(C)C)c1 | 0.343%

Series 4
Target: Calcium/calmodulin-dependent protein kinase type II subunit alpha (CAMK2A, Homo sapiens, UniProt Q9UQM7)
UniProt Q9UQM7, sequence (whole entry, looked up): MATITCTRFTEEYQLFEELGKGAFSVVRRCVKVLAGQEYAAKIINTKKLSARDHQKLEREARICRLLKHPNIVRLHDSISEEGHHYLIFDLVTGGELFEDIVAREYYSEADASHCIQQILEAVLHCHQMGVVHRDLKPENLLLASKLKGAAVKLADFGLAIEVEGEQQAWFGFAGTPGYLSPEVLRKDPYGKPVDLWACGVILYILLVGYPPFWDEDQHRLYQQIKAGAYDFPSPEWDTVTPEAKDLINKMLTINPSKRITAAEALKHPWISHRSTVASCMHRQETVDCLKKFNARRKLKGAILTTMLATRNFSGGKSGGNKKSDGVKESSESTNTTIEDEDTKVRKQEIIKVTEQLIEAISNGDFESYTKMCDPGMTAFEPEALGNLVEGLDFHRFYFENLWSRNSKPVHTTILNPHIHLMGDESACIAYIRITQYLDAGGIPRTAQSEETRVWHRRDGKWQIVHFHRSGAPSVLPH
Observed: enzyme activity
Mode: inhibitor
Concentration: 10 µM
SMILES | inhibition [%]
Cn1c(=O)c2nc[nH]c2n(C)c1=O | 10
CCN(CCCc1ccccc1)CCCc1ccccc1 | -9
NC(=O)NS(=O)(=O)c1ccc(N)cc1 | -1
Cc1ncc([N+](=O)[O-])n1CC(O)CCl (stereo not shown) | 10
COc1cc(/C=C/C(=O)OC(C)C)ccc1O | 0
NC[C@H](O)c1ccc(O)c(O)c1 | -13
COC1=C(OC)C(=O)C(CCCCCCCCCCO)=C(C)C1=O | 3
CC(=O)Nc1ccc(OC(C)=O)cc1 | -2
COc1cc(-c2coc3cc(O[C@@H]4O[C@H](CO)[C@@H](O)[C@H](O)[C@H]4O)c(OC)c(O)c3c2=O)cc(O)c1OC | -55

Some of these lines once more (series 3):
SMILES | remaining compound
CCCn1nc(C)c(-c2cncn2CC(c2ccccc2Cl)N(C)C)c1C (stereo not shown) | 7.18%
CN1C(=O)C(CC(=O)N2CCN(c3ccccn3)CC2)=C2CCCCC21 (stereo not shown) | 2.2%
CC(Nc1oc(/C=C/c2cccs2)nc1C#N)c1ccccc1 (stereo not shown) | 0.57%
Cc1cc(O)c(C(c2ccco2)c2c(O)cc(C)n(C)c2=O)c(=O)n1C | 30.6%
COc1ccc(-n2cc(CO)c3cnc4c(OC)cccc4c32)c(C)c1 | 27%
